Assay results collected from several papers.
“And” joins repeats or separate records; there may be more than shown. ± marks the error that the study gave. In brackets after ≈: the same amount, converted by molar mass.
rep papain-like protease: Replicase polyprotein 1ab, papain-like protease (rep, Severe acute respiratory syndrome coronavirus 2, UniProt P0DTD1)
rep main protease: Replicase polyprotein 1ab, main protease (rep, Severe acute respiratory syndrome coronavirus 2, UniProt P0DTD1)
rep nsp14: Replicase polyprotein 1ab, nsp14 (rep, Severe acute respiratory syndrome coronavirus 2, UniProt P0DTD1)
Sequence of UniProt P41145 (whole entry, looked up): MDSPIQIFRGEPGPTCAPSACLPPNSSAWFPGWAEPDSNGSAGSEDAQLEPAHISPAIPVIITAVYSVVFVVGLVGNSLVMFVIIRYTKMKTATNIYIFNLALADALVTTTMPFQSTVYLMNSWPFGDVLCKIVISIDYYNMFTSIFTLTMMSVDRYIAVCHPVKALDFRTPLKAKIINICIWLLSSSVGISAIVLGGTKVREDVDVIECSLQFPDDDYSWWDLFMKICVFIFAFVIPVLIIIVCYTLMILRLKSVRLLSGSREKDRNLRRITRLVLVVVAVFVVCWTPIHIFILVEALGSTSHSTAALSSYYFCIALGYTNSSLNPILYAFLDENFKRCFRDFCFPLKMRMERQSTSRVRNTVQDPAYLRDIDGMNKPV
Sequence of UniProt P41143 (whole entry, looked up): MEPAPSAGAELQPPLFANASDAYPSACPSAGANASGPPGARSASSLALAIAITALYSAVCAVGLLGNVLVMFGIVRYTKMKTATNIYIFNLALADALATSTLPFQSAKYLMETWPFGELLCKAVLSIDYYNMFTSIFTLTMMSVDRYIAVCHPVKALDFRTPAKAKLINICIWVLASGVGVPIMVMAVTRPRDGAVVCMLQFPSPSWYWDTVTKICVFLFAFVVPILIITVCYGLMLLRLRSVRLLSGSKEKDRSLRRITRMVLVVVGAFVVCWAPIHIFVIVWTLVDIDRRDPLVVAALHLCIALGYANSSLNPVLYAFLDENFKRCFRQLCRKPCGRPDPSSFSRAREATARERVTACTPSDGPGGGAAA

SMILES	tested on	test	test system	conditions	measurement	value
COc1ccc(C(C)NC(=O)c2cc(N)ccc2C)cc1OC (stereo not shown)	rep papain-like protease	inhibitor	–	–	IC50	24.7 ± 3.7 µM
Cc1ccc(OCCN(C)C)cc1C(=O)N[C@H](C)c1cc(-c2cnn(C)c2)cc(-c2cnn(C)c2)c1	rep papain-like protease	enzyme activity, inhibitor, FRET	–	–	IC50	0.151 µM
O=C(Nc1ccccc1)c1ccccc1[Se][Se]c1ccccc1C(=O)Nc1ccccc1	rep main protease	enzyme activity, inhibitor	–	pH 7.3	IC50	0.065 µM
CC(C)C[C@H](NC(=O)[C@H](CO[C@@H]1O[C@H](CO)[C@@H](O[C@@H]2O[C@H](CO)[C@H](O)[C@H](O)[C@H]2O)[C@H](O)[C@H]1O)NC(=O)[C@H](CCCCN)NC(=O)[C@H](CC(C)C)NC(=O)[C@H](C)NC(=O)[C@H](CCCCN)NC(=O)[C@H](CCC(=O)O)NC(=O)[C@H](C)NC(=O)[C@H](CC(C)C)NC(=O)[C@H](CC(N)=O)NC(=O)[C@@H]1CCCN1C(=O)[C@H](CC(C)C)NC(=O)[C@H](Cc1ccccc1)NC(=O)CNC(=O)[C@H](NC(=O)[C@@H](N)Cc1ccc(O)cc1)[C@H](C)O)C(N)=O	Kappa-type opioid receptor (OPRK1, Homo sapiens, UniProt P41145)	ligand displacement, radioligand	–	pH 7.5, cell membranes	Ki	0.015 µM
Cc1cccc(Cl)c1-n1sc(=O)n(CC2CC2)c1=O	Replicase polyprotein 1ab, nsp3 macrodomain (rep, Severe acute respiratory syndrome coronavirus 2, UniProt P0DTD1)	ADP-ribose binding, inhibitor, fluorescence polarization	–	Mac1 domain, SARS-CoV-2	IC50	4.4 ± 0.3 µM
CCc1ccccc1NC(=S)N/N=C/c1ccc(O)cc1O	rep main protease	enzyme activity, inhibitor, FRET	–	–	IC50	2.43 µM
OC[C@H]1O[C@@H](Oc2cc3c(O)cc(O)cc3[o+]c2-c2ccc(O)c(O)c2)[C@H](O)[C@@H](O)[C@@H]1O	Replicase polyprotein 1ab, methyltransferase (rep, Severe acute respiratory syndrome coronavirus 2, UniProt P0DTD1)	enzyme activity, inhibitor	–	–	IC50	15.6 µM
COc1ccc(-c2cc(=O)c3c(O)cc(O)c(-c4cc(-c5cc(=O)c6c(O)cc(OC)cc6o5)ccc4OC)c3o2)cc1	rep papain-like protease	enzyme activity, inhibitor, fluorescence	–	pH 8	IC50	34.8 to 36.4 µM and 34.8 µM
CC(C)C[C@H](NC(=O)[C@H](CO[C@@H]1O[C@H](CO)[C@@H](O[C@@H]2O[C@H](CO)[C@H](O)[C@H](O)[C@H]2O)[C@H](O)[C@H]1O)NC(=O)[C@H](CCCCN)NC(=O)[C@H](CC(C)C)NC(=O)[C@H](C)NC(=O)[C@H](CCCCN)NC(=O)[C@H](CCC(=O)O)NC(=O)CNC(=O)[C@H](CC(C)C)NC(=O)[C@H](CC(N)=O)NC(=O)[C@@H]1CCCN1C(=O)[C@H](CC(C)C)NC(=O)[C@H](Cc1ccccc1)NC(=O)CNC(=O)[C@H](NC(=O)[C@@H](N)Cc1ccc(O)cc1)[C@H](C)O)C(N)=O	Delta-type opioid receptor (OPRD1, Homo sapiens, UniProt P41143)	ligand displacement, radioligand	–	pH 7.5, cell membranes	Ki	0.0082 µM
CCC(C(=O)Nc1ccccc1C)n1c(SCc2ccc(F)cc2)nc2cccnc21 (stereo not shown)	rep papain-like protease	enzyme activity, inhibitor	–	–	IC50	> 20 µM
CC[C@@H](C)[C@@H](NC(=O)[C@@H](CCCCN)NC(=O)[C@@H](CCCCN)NC(=O)[C@@H](CC(C)C)NC(=O)[C@@H](Cc1c[nH]c2ccccc12)NC(=O)CN)C(=O)NCC(=O)N[C@H](CCCCN)C(=O)N[C@H](CCCCN)C(=O)N[C@@H](C(=O)N[C@H](CCC(=O)O)C(=O)N[C@H](CCCNC(=N)N)C(=O)N[C@@H](C(=O)NCC(=O)N[C@H](CCC(N)=O)C(=O)N[C@H](Cc1c[nH]cn1)C(=O)N[C@@H](C(=O)N[C@H](CCCNC(=N)N)C(=O)N[C@H](CC(=O)O)C(=O)N[C@H](C)C(=O)N[C@@H](C(=O)N[C@@H](C(=O)N[C@H](CCC(N)=O)C(=O)N[C@@H](C(=O)N[C@@H](C(=O)NCC(=O)N[C@@H](C(=O)N[C@H](C)C(=O)N[C@H](CCC(N)=O)C(=O)N[C@H](CCC(N)=O)C(=O)N[C@H](C)C(=O)N[C@H](C)C(=O)N[C@H](CC(N)=O)C(=O)N[C@@H](C(=O)N[C@H](C)C(=O)N[C@H](C)C(=O)N[C@@H](C(=O)N[C@H](CC(C)C)C(=O)N[C@H](CCCCN)C(N)=O)[C@H](C)O)C(C)C)C(C)C)[C@H](C)CC)[C@H](C)O)[C@H](C)CC)[C@H](C)O)[C@H](C)O)C(C)C)[C@H](C)CC	Escherichia coli	–	isolate RKI 131/03, CAMHB	–	MIC	128 µg/mL (≈ 30.5 µM)
CCCCCCCCCCCCCCCC(=O)N[C@@H](CCC(=O)NCCOCCOCCC(=O)NCCOCCOCCC(=O)NCCCC[C@H](NC(=O)[C@H](CC(=O)O)NC(=O)[C@H](CC(C)C)NC(=O)[C@H](Cc1ccc(O)cc1)NC(=O)[C@H](CCCCN)NC(=O)[C@H](CO)NC(=O)[C@H](Cc1ccc(O)cc1)NC(=O)[C@H](CC(=O)O)NC(=O)[C@H](CO)NC(=O)[C@@H](NC(=O)[C@H](Cc1ccccc1)NC(=O)[C@@H](NC(=O)CNC(=O)[C@H](CCC(N)=O)NC(=O)[C@@H](CO)NC(=O)[C@@H](N)Cc1c[nH]cn1)[C@@H](C)O)[C@@H](C)O)C(=O)N[C@@H](CCCNC(=N)N)C(=O)N[C@@H](CCCNC(=N)N)C(=O)N[C@@H](C)C(=O)N[C@@H](CCC(N)=O)C(=O)N[C@@H](CC(=O)O)C(=O)N[C@@H](Cc1ccccc1)C(=O)N[C@H](C(=O)N[C@@H](CCC(N)=O)C(=O)N[C@@H](Cc1c[nH]c2ccccc12)C(=O)N[C@@H](CC(C)C)C(=O)N[C@@H](CC(C)C)C(=O)N[C@@H](CC(N)=O)C(=O)N[C@H](C(=O)NCC(=O)NCC(=O)N1CCC[C@H]1C(=O)N[C@@H](CO)C(=O)N[C@@H](CO)C(=O)NCC(=O)N[C@@H](C)C(=O)N1CCC[C@H]1C(=O)N1CCC[C@H]1C(=O)N1CCC[C@H]1C(=O)N[C@@H](CO)C(N)=O)[C@@H](C)O)C(C)C)C(=O)O	–	item: ALP	Sprague-Dawley rat, female	subcutaneous, 20 µg/kg once daily, 14 days	serum enzyme activity	69.1 ± 9.3 U/L
NC[C@@H](CC[C@H](N)C(=O)O)C[C@H]1O[C@@H](n2cnc3c(N)ncnc32)[C@H](O)[C@@H]1O	rep nsp14	nsp14 methyltransferase activity, inhibitor, radiometric SPA	–	20 min, added: 3H-SAM 250 nM, RNA 50 nM	IC50	0.19 ± 0.04 µM
COc1cc(/C=C/C(=O)O)ccc1O	Replicase polyprotein 1ab, nsp13 helicase (rep, Severe acute respiratory syndrome coronavirus 2, UniProt P0DTD1)	ATPase activity	–	no nucleic acid	IC50	> 30 µM
CCN(CC)S(=O)(=O)c1ccc2nnn(OCc3ccc(C#N)cc3)c2c1	rep main protease	enzyme activity, inhibitor	–	–	IC50	> 100 µM
CCN1C(=O)CC[C@H]1c1c(O)cc2c(c1O)C[C@@H](OC(=O)c1cc(O)c(O)c(O)c1)[C@@H](c1cc(O)c(O)c(O)c1)O2	rep main protease	enzyme activity, inhibitor	–	–	IC50	46.7 µM
O=C(O)C[C@H](NC(=O)c1ccccc1[Se][Se]c1ccccc1C(=O)N[C@@H](CC(=O)O)C(=O)O)C(=O)O	rep main protease	enzyme activity, inhibitor	–	–	IC50	11.8 µM
Nc1ncnc2c1ncn2[C@@H]1O[C@H](CSCc2ccc(Cl)cc2Cl)[C@@H](O)[C@H]1O	rep nsp14	methyltransferase activity, radiometric	–	added: 3H-SAM	IC50	< 5 µM and 4.2 µM
C#CCNC(=O)C[C@H](Cc1ccc(F)cc1)NC(=O)[C@@H](Cc1ccc(Cl)cc1Cl)NC(=O)[C@H](N)Cc1ccccc1C#N	rep main protease	enzyme activity, inhibitor, fluorescence	–	–	IC50	0.1 µM

Excerpt of the above:
SMILES	tested on	test	test system	conditions	measurement	value
CC(C)C[C@H](NC(=O)[C@H](CO[C@@H]1O[C@H](CO)[C@@H](O[C@@H]2O[C@H](CO)[C@H](O)[C@H](O)[C@H]2O)[C@H](O)[C@H]1O)NC(=O)[C@H](CCCCN)NC(=O)[C@H](CC(C)C)NC(=O)[C@H](C)NC(=O)[C@H](CCCCN)NC(=O)[C@H](CCC(=O)O)NC(=O)CNC(=O)[C@H](CC(C)C)NC(=O)[C@H](CC(N)=O)NC(=O)[C@@H]1CCCN1C(=O)[C@H](CC(C)C)NC(=O)[C@H](Cc1ccccc1)NC(=O)CNC(=O)[C@H](NC(=O)[C@@H](N)Cc1ccc(O)cc1)[C@H](C)O)C(N)=O	Delta-type opioid receptor (OPRD1, Homo sapiens, UniProt P41143)	ligand displacement, radioligand	–	pH 7.5, cell membranes	Ki	0.0082 µM
CCC(C(=O)Nc1ccccc1C)n1c(SCc2ccc(F)cc2)nc2cccnc21 (stereo not shown)	rep papain-like protease	enzyme activity, inhibitor	–	–	IC50	> 20 µM
CC[C@@H](C)[C@@H](NC(=O)[C@@H](CCCCN)NC(=O)[C@@H](CCCCN)NC(=O)[C@@H](CC(C)C)NC(=O)[C@@H](Cc1c[nH]c2ccccc12)NC(=O)CN)C(=O)NCC(=O)N[C@H](CCCCN)C(=O)N[C@H](CCCCN)C(=O)N[C@@H](C(=O)N[C@H](CCC(=O)O)C(=O)N[C@H](CCCNC(=N)N)C(=O)N[C@@H](C(=O)NCC(=O)N[C@H](CCC(N)=O)C(=O)N[C@H](Cc1c[nH]cn1)C(=O)N[C@@H](C(=O)N[C@H](CCCNC(=N)N)C(=O)N[C@H](CC(=O)O)C(=O)N[C@H](C)C(=O)N[C@@H](C(=O)N[C@@H](C(=O)N[C@H](CCC(N)=O)C(=O)N[C@@H](C(=O)N[C@@H](C(=O)NCC(=O)N[C@@H](C(=O)N[C@H](C)C(=O)N[C@H](CCC(N)=O)C(=O)N[C@H](CCC(N)=O)C(=O)N[C@H](C)C(=O)N[C@H](C)C(=O)N[C@H](CC(N)=O)C(=O)N[C@@H](C(=O)N[C@H](C)C(=O)N[C@H](C)C(=O)N[C@@H](C(=O)N[C@H](CC(C)C)C(=O)N[C@H](CCCCN)C(N)=O)[C@H](C)O)C(C)C)C(C)C)[C@H](C)CC)[C@H](C)O)[C@H](C)CC)[C@H](C)O)[C@H](C)O)C(C)C)[C@H](C)CC	Escherichia coli	–	isolate RKI 131/03, CAMHB	–	MIC	128 µg/mL (≈ 30.5 µM)
